Results from different studies.
Compare with care: the assays were run in different laboratories. ± gives the spread as reported.
CYP2C9: Cytochrome P450 2C9 (CYP2C9, Homo sapiens, UniProt P11712)
Chain of UniProt P11712 (whole entry, looked up): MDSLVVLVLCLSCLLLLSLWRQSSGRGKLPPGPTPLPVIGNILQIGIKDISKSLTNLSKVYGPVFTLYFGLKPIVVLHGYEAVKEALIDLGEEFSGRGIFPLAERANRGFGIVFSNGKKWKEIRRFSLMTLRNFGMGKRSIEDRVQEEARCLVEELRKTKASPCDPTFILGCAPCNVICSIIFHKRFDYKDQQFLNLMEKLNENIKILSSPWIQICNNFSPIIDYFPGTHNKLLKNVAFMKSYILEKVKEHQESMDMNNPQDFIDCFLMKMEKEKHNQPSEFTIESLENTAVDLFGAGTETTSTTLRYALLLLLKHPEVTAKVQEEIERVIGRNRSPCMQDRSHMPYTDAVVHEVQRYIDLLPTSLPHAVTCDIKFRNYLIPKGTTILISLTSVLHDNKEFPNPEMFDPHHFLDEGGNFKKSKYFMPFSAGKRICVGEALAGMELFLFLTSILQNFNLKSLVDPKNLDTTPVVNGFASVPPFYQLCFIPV
CYP2C19: Cytochrome P450 2C19 (CYP2C19, Homo sapiens, UniProt P33261)
Chain of UniProt P33261 (whole entry, looked up): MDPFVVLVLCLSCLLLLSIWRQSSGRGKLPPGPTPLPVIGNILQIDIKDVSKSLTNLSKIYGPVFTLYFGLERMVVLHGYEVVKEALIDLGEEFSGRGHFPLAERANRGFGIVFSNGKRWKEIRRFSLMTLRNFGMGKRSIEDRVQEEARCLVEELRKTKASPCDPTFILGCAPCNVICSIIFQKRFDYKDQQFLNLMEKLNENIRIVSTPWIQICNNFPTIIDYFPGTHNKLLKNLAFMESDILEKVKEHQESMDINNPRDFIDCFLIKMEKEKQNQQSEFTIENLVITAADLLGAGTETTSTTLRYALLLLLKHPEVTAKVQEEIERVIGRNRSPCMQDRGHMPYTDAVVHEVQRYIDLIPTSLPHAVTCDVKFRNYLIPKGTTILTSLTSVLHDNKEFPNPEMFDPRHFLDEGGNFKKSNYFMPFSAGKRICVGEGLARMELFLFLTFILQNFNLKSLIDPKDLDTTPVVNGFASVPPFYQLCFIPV
AHR: Aryl hydrocarbon receptor (AHR, Delphinapterus leucas, UniProt Q95LD9)
Chain of UniProt Q95LD9 (whole entry, looked up): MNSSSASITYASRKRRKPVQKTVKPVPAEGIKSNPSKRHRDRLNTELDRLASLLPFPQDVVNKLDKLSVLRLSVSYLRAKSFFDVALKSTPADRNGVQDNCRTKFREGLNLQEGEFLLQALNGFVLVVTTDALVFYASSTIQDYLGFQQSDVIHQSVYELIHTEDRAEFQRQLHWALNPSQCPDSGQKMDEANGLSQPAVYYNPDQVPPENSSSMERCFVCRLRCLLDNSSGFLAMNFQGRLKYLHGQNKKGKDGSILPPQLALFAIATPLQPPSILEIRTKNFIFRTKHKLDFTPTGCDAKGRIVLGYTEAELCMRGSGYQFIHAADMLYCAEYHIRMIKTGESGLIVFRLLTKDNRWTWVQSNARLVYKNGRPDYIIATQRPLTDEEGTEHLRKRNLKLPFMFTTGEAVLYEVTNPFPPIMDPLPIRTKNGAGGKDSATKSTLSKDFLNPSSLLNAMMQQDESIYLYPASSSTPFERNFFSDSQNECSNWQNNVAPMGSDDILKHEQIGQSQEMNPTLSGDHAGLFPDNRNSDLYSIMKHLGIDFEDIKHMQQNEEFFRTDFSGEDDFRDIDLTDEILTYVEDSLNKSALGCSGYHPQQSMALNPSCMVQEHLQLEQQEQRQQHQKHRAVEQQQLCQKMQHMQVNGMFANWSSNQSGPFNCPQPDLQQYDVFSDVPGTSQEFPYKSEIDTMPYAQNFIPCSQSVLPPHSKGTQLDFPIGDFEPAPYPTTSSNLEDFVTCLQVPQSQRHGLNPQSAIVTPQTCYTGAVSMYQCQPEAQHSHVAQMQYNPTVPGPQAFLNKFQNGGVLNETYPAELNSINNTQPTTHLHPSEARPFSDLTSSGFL
Chain of UniProt Q86VL8 (whole entry, looked up): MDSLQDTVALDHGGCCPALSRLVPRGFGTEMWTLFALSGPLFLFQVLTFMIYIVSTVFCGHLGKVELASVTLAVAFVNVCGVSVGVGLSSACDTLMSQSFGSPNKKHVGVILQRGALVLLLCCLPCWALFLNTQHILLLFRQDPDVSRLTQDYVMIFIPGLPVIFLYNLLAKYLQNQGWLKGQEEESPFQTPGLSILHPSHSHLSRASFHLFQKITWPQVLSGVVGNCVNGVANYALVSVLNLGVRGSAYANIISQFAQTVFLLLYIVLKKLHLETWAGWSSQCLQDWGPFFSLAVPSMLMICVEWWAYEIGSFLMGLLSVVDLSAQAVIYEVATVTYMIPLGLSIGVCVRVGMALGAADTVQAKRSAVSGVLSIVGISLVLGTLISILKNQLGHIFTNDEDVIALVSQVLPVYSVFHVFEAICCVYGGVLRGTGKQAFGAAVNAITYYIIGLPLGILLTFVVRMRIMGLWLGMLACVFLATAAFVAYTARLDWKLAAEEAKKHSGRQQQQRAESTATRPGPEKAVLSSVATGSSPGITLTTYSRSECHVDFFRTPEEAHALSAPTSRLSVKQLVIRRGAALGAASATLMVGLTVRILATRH
Chain of UniProt P08183 (whole entry, looked up): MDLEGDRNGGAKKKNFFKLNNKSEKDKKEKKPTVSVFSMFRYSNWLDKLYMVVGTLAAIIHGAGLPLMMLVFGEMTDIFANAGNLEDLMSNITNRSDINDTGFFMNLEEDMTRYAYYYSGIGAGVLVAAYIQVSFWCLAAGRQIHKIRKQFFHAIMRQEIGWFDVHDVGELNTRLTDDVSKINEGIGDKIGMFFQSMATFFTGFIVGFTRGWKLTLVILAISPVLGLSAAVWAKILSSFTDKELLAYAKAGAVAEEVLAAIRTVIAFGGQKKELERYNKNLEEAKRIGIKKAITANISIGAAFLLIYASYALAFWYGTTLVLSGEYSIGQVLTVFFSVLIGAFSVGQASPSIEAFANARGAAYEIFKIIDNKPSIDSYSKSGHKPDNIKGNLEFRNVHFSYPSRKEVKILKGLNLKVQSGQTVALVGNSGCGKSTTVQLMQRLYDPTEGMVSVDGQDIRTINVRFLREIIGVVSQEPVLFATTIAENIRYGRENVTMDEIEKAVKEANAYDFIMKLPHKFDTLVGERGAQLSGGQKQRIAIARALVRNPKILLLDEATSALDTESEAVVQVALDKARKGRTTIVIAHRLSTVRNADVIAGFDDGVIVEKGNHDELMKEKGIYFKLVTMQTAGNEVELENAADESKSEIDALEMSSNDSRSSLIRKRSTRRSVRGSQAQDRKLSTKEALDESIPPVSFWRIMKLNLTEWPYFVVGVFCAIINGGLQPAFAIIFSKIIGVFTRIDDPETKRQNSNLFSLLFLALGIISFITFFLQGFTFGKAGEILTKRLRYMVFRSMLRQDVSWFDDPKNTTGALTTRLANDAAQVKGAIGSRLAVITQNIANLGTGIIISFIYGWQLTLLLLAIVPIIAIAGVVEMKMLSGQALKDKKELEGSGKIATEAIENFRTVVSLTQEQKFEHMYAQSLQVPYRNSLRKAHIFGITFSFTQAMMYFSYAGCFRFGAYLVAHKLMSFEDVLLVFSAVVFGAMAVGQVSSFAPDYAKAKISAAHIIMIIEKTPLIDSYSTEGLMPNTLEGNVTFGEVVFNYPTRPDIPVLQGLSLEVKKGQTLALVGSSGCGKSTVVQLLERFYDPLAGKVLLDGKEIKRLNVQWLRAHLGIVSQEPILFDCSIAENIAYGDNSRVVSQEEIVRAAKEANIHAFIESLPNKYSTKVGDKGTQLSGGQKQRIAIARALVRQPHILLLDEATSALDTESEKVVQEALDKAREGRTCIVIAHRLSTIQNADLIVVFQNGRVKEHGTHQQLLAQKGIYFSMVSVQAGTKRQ

With `CC(=O)CC(c1ccc(O)cc1)c1c(O)c2ccccc2oc1=O` (stereo not shown) the IC50 was 9.3 µM (CYP2C9; enzyme activity, inhibitor, luciferase).
For `COc1ccc2c3c1O[C@H]1C[C@@H](OC(=O)CCCCCCCCC(=O)O[C@H]4C=C[C@@]56CCN(C)Cc7ccc(OC)c(c75)O[C@H]6C4)C=C[C@@]31CCN(C)C2`, the IC50 was 0.5 ± 0.1 µM (ABCB1 (Homo sapiens, UniProt P08183); BODIPY-FL-verapamil accumulation, inhibitor, flow cytometry; MCF7/DX1; together with: 0.5 µM BODIPY-FL-verapamil).
The IC50 of `O=C(O)C(F)(F)C(F)(F)C(F)(F)C(F)(F)C(F)(F)F` is reported as > 100 µM (CYP2C19; enzyme activity, inhibitor; Supersomes, together with: 7-BFC substrate).
With `Clc1ccc(-c2ccc(Cl)c(Cl)c2Cl)c(Cl)c1Cl` the IC50 was 2.24 µM (AHR; binding, competitor; in vitro expressed receptor, together with: [3H]TCDD).
`N#Cc1ccc(N2N=C3c4ccc(C(=O)N5CCC(O)CC5)nc4CC[C@@H]3[C@@H]2C2CCCC2)cc1Cl` gave an IC50 of 7.9 µM (SLC47A2 (Homo sapiens, UniProt Q86VL8); transporter uptake, inhibitor).
`CC(=O)CC(c1ccccc1)c1c(O)c2ccc(O)cc2oc1=O` (stereo not shown) has an IC50 of 35 µM (CYP2C9; enzyme activity, inhibitor, luciferase).
`Clc1ccc(-c2cc(Cl)c(Cl)c(Cl)c2)cc1Cl` gave an IC50 of 0.0081 µM (AHR; binding, competitor; in vitro expressed receptor, together with: [3H]TCDD).
With `C[C@@H]1CC[C@]2(C(=O)O)CC[C@]3(C)C(=CC[C@@H]4[C@@]5(C)CC[C@H](O)[C@@](C)(CO)[C@@H]5CC[C@]43C)[C@@H]2[C@]1(C)O` the IC50 was > 50 µM (CYP3A4/5; enzyme activity, inhibitor, probe cocktail incubation; pooled human liver microsomes; 20 min, together with: midazolam 1.535 µM and testosterone 17.34 µM).
The tissue uptake of `CN[C@@](C)(C[18F])C(=O)O` is reported as 3.6 ± 0.4 %ID/g (SCID mouse MDA-MB-468 xenograft, kidney; 120 min, post injection).
`Clc1ccc(-c2cc(Cl)c(Cl)c(Cl)c2Cl)cc1Cl` gave an IC50 of 1.59 µM (AHR; binding, competitor; in vitro expressed receptor, together with: [3H]TCDD).
The IC50 of `CC(=O)CC(c1ccccc1)c1c(O)c2cc(O)ccc2oc1=O` (stereo not shown) is reported as 47 µM (CYP2C9; enzyme activity, inhibitor, luciferase).
`Clc1ccc(-c2ccc(Cl)c(Cl)c2)cc1Cl` gave an IC50 of 0.0355 µM (AHR; binding, competitor; in vitro expressed receptor, together with: [3H]TCDD).
The IC50 of `O=S(=O)(O)C(F)(F)C(F)(F)C(F)(F)C(F)(F)F` is reported as > 100 µM (CYP2C19; enzyme activity, inhibitor; Supersomes, together with: 7-BFC substrate).

Repeated from above:
`Clc1ccc(-c2cc(Cl)c(Cl)c(Cl)c2)cc1Cl` gave an IC50 of 0.0081 µM (AHR; binding, competitor; in vitro expressed receptor, together with: [3H]TCDD).
With `C[C@@H]1CC[C@]2(C(=O)O)CC[C@]3(C)C(=CC[C@@H]4[C@@]5(C)CC[C@H](O)[C@@](C)(CO)[C@@H]5CC[C@]43C)[C@@H]2[C@]1(C)O` the IC50 was > 50 µM (CYP3A4/5; enzyme activity, inhibitor, probe cocktail incubation; pooled human liver microsomes; 20 min, together with: midazolam 1.535 µM and testosterone 17.34 µM).
